Measurements pooled from the literature.
Compare with care: the assays were run in different laboratories. Values joined by “and” are separate records of one study, mostly repeats; a detail may differ. ± marks the error that the study gave.
OPRK1: Kappa-type opioid receptor (OPRK1, Homo sapiens, UniProt P41145)
icl: Isocitrate lyase (icl, Mycobacterium tuberculosis, UniProt P9WKK7)
aac: Aminoglycoside 2'-N-acetyltransferase (aac, Mycobacterium tuberculosis, UniProt P9WQG9)
Slc6a2: Transporter (Slc6a2, Rattus norvegicus, UniProt Q63380)
uncharacterized protein: uncharacterized protein (Aptenodytes forsteri, UniProt A0A087QWN2)

C/C=C1/CN2CC[C@]34C(=C(C(=O)OC)[C@H]1C[C@H]23)Nc1ccc(I)cc14  selectivity ratio (OPRK1; [3H]diprenorphine competition binding; CHO cell membranes; reference: Ki MOR over Ki KOR): 164
COc1ccsc1CNCC[C@@]1(c2ccccn2)CCOC2(CCCC2)C1  log(tau/KA) (Oprm1 (Mus musculus, UniProt P42866); GIRK current, perforated patch clamp; AtT20 cells; 80% receptor knockdown): 7.2 ± 0.08
NC(Cc1c[nH]c2ccccc12)C(=O)NCc1ccco1 (stereo not shown)  delta Tm (icl; thermal shift, SYPRO Orange; 1 mM, pH 7.5, 1 mM MgCl2, protein 20 µM): > 0.5 °C
C#CCOc1ccc(C=C2C(=O)NC(=O)NC2=O)cc1Br  labelling (UCHL1 (Homo sapiens, UniProt P09936); covalent, intact protein LC-MS; 12.5 µM): 28.1%
CCCc1cc(C(=O)Cc2cc3ccccc3o2)c(O)cc1O  delta Tm (icl; thermal shift, SYPRO Orange; 1 mM, pH 7.5, 1 mM MgCl2, protein 20 µM): > 0.5 °C
CCCCCCCC[C@H]1O[C@H]1C/C=C/C=C/[C@H](O)CC(=O)NC1=C[C@](C)(CC)OC1=O  ΔG (Na(+)-translocating NADH-quinone reductase subunit B, whole Na+-NQR complex (nqrB, Vibrio cholerae serotype O1, UniProt Q9KPS2); isothermal titration calorimetry; 20 °C, 50 µM): -10 kcal/mol
Oc1ccc2c3c1O[C@H]1[C@@H](O)CC[C@@]4(O)[C@@H](C2)N(CC2CCC2)CC[C@]314  log2 fold change (SUCNR1 (Homo sapiens, UniProt Q9BXA5); β-arrestin recruitment, TANGO luminescence; concentration not given; reference: basal luminescence): 0.316
CNC1(c2ccccc2Cl)CCCCC1=O (racemic)  inhibition (OPRK1; radioligand binding, agonist, radioligand displacement; 30 µM): 50%
Brc1ccc(COc2ccccc2CNCc2ccccc2)cc1  highest concentration without inhibition (aac; neomycin acetylation, inhibitor; with: neomycin): > 200 µM
COC(=O)[C@@H](NC(=O)c1nn(Cc2ccc(F)cc2)c2ccccc12)C(C)(C)C  Gi GTP turnover minimum (CNR1 (Homo sapiens, UniProt P21554); GTPase; reference: compound): 98%
CCOC(=O)c1ccc(CC(=O)c2oc3cc(O)ccc3c2C)o1  delta Tm (icl; thermal shift, SYPRO Orange; 1 mM, pH 7.5, 1 mM MgCl2, protein 20 µM): > 0.5 °C
Cl.O=C(N[C@H]1CC[C@@]2(O)[C@H]3Cc4ccc(O)c5c4[C@@]2(CCN3CC2CC2)[C@H]1O5)c1ccc(C(F)(F)F)s1  selectivity ratio (OPRK1; radioligand binding; CHO membranes; reference: Ki µ over Ki κ): 5.26
C=CCN1CC[C@]23c4c5ccc(O)c4O[C@H]2C(=O)CC[C@@]3(O)[C@H]1C5  inhibition (rat Opiate receptor; binding; 1 × 10 µM): 100%
O=C(COc1ccc(Cl)cc1Cl)N/N=C/c1cc2c(s1)CCCC2  remaining activity (1-deoxy-D-xylulose-5-phosphate synthase (Mycobacterium tuberculosis, UniProt P9WNS3); inhibitor; concentration not given): 50%
O=C(Cc1ccc2cccnc2c1)c1ccc(O)cc1O  delta Tm (icl; thermal shift, SYPRO Orange; 1 mM, pH 7.5, 1 mM MgCl2, protein 20 µM): > 0.5 °C
CCC(C(=O)c1ccc2c(c1)OCO2)N(C)C (stereo not shown)  EC50 (Slc6a2; substrate release, releaser; rat brain synaptosomes; with: [3H]MPP+ 9 nM): inactive
C[C@]12CCC(=O)C=C1CC[C@@H]1[C@@H]2CC[C@]2(C)C(=O)CC[C@@H]12  koff (uncharacterized protein; Aptenodytes forsteri): 5.2 ± 1.4 s⁻¹
c1ccc2cc([C@]34CNC[C@H]3C4)ccc2c1  dopamine uptake (SLC6A3 (Homo sapiens, UniProt Q01959, F326A); inhibitor, [3H]dopamine uptake; 100 µM, F326A mutant; reference: no inhibitor): -3.6% and 1.49% and -0.309%
Clc1ccc(COc2cccc(CNCc3cccnc3)c2)cc1  highest concentration without inhibition (aac; neomycin acetylation, inhibitor; with: neomycin): > 200 µM
Cc1ccc(C(=O)CC(=O)c2ccco2)c(O)c1  delta Tm (icl; thermal shift, SYPRO Orange; 1 mM, pH 7.5, 1 mM MgCl2, protein 20 µM): > 0.5 °C
Cl.O=C(N[C@H]1CC[C@@]2(O)[C@H]3Cc4ccc(O)c5c4[C@@]2(CCN3CC2CC2)[C@H]1O5)c1ccc(C(F)F)s1  selectivity ratio (OPRK1; radioligand binding; CHO membranes; reference: Ki µ over Ki κ): 9.8
O=C(COc1ccccc1Br)c1ccc(O)cc1O  delta Tm (icl; thermal shift, SYPRO Orange; 1 mM, pH 7.5, 1 mM MgCl2, protein 20 µM): > 0.5 °C
CC(=O)N[C@H]1C(O)O[C@H](CO)[C@@H](O)[C@@H]1O (stereo partly shown)  Km (lacto-N-biose phosphorylase; substrate): 19.2 ± 2.38 mM
C[C@]12CC[C@H]3[C@@H](CCC4=CC(=O)CC[C@@]43CO)[C@@H]1CCC2=O  koff (uncharacterized protein; Aptenodytes forsteri): 6.5 ± 2 s⁻¹
Cl.O=C(N[C@H]1CC[C@@]2(O)[C@H]3Cc4ccc(O)c5c4[C@@]2(CCN3CC2CC2)[C@H]1O5)c1ccc(Cl)s1  selectivity ratio (OPRK1; radioligand binding; CHO membranes; reference: Ki µ over Ki κ): 5.39
Clc1cccc(COc2ccccc2CNCc2ccncc2)c1  highest concentration without inhibition (aac; neomycin acetylation, inhibitor; with: neomycin): > 200 µM
CS(=O)(=O)c1ccc(C(=O)N[C@H]2CC[C@@]3(O)[C@H]4Cc5ccc(O)c6c5[C@@]3(CCN4CC3CC3)[C@H]2O6)s1.Cl  selectivity ratio (OPRK1; radioligand binding; CHO membranes; reference: Ki µ over Ki κ): 4.6
CCNC(CC)C(=O)c1ccc2c(c1)OCO2 (stereo not shown)  EC50 (Slc6a2; substrate release, releaser; rat brain synaptosomes; with: [3H]MPP+ 9 nM): inactive

A few entries again:
CCCCCCCC[C@H]1O[C@H]1C/C=C/C=C/[C@H](O)CC(=O)NC1=C[C@](C)(CC)OC1=O  ΔG (Na(+)-translocating NADH-quinone reductase subunit B, whole Na+-NQR complex (nqrB, Vibrio cholerae serotype O1, UniProt Q9KPS2); isothermal titration calorimetry; 20 °C, 50 µM): -10 kcal/mol
Oc1ccc2c3c1O[C@H]1[C@@H](O)CC[C@@]4(O)[C@@H](C2)N(CC2CCC2)CC[C@]314  log2 fold change (SUCNR1 (Homo sapiens, UniProt Q9BXA5); β-arrestin recruitment, TANGO luminescence; concentration not given; reference: basal luminescence): 0.316
CNC1(c2ccccc2Cl)CCCCC1=O (racemic)  inhibition (OPRK1; radioligand binding, agonist, radioligand displacement; 30 µM): 50%
Brc1ccc(COc2ccccc2CNCc2ccccc2)cc1  highest concentration without inhibition (aac; neomycin acetylation, inhibitor; with: neomycin): > 200 µM
